Results collected from several papers.
Several values in a cell are separate wells, animals, samples, runs or records.
Target: Ephrin type-B receptor 4 (EPHB4, Homo sapiens, UniProt P54760)

NC(=O)[C@@H](O)C[C@H]1CCc2sc3ncnc(O[C@H]4CC[C@H](N5CCOCC5)CC4)c3c21  inhibition (enzyme activity, inhibitor; 10 µM): 32%
C=CC(=O)N1CCCC(n2c(=O)c3ncccc3n(Cc3ccc(Oc4ccccc4)cc3)c2=O)C1 (stereo not shown)  remaining binding (cell-free assay, competition with immobilised ligand; 1 µM): 100%
C=CC(=O)Nc1cccc(-c2cnc3[nH]cc(C(=O)NC(C)(C)C)c3n2)c1  inhibition (enzyme activity, inhibitor; 0.1 µM): -3%
CCN1CCN(Cc2ccc(NC(=O)c3ccc(C)c(NC(=O)c4cncc(-c5cccs5)c4)c3)cc2C(F)(F)F)CC1  remaining binding (binding, competition with immobilised ligand; 1 µM): 13%
CCn1cc(C(=O)O)c(=O)c2c(N)c(F)c(NC3CCCCC3)cc21  inhibition (kinase activity; 0.1 µM, together with: ATP at Km): 3.1%
O=C=[N][Ru-4]123([n]4c5ccc(O)cc5c5c6c(c7cc(F)c[n+]1c7c54)C(=O)NC6=O)[S+]1CC[S+]2CC[S+]3CC1 (stereo not shown)  remaining activity (enzyme activity; 100 nM, human enzyme, together with: 10 µM ATP; reference: untreated): 113%
O=C(O)CCC(=O)c1cccc(NS(=O)(=O)c2c[nH]c3ncccc23)c1  remaining activity (kinase activity, radiometric; 10 µM): 88%
C[C@H]1CN(C(=O)c2cn(-c3ccnc(N)n3)c3cc(C#CC4(O)CCCCC4)ccc23)CCN1  inhibition (enzyme activity, inhibitor, FRET; 1 µM): 3%
CN1CC[C@@H](COc2cnc(C#N)cc2-c2ccn3nc(NC(=O)C4CC4)cc3c2)C1  inhibition (enzyme activity, inhibitor; 1 µM): 5%
COc1ccc(NC(=O)Nc2ccc3c(c2)C(=O)N(C(C)CO)CC(C)C(CN(C)Cc2ccc4c(c2)OCO4)O3)cc1 (stereo not shown)  remaining activity (kinase activity, KinaseProfiler; 0.03 µM, species human; reference: control): 99%
CN1CCN(Cc2ccc(-c3ccc(CO[C@H]4CCC[C@@H]4NC(=O)c4cc(-c5cnn(C)c5)cnc4N)cc3)cc2)CC1  inhibition (enzyme activity, inhibitor; 0.1 µM): -1%
Nc1ncc(-c2cc(-c3cnn(CC(F)(F)F)c3)ncc2F)nc1C(=O)NC1CNCC(F)C1 (stereo not shown)  remaining activity (enzyme activity; 1 µM; reference: DMSO control): 85.4%
Cc1cccc(O[C@H]2CCC[C@@H](C(C)CNCc3ccncc3)C2)c1 (relative stereo)  inhibition (cell-free assay; 1 µM): -3%
C=CC(=O)N1Cc2nc(-c3cc(-c4cc(Cl)cnc4Cl)c(F)cc3F)n(-c3ccncn3)c2C1  inhibition (cell-free assay; 1 µM): 2.2%
COc1ccc(O)cc1-c1c[nH]c2ncc(-c3cncc(C(=O)N(C)C)c3)cc12  inhibition (binding, competition with immobilised ligand; 0.2 µM): 4.69%
COc1cc(Nc2nccc(-c3cnn4nc(OC)ccc34)n2)cc(C(F)(F)F)c1  remaining binding (binding, competition with immobilised ligand; 1 µM): 92%
O=C(Nc1ccc(Oc2ncnc3[nH]cc(-c4ccccc4)c23)c(F)c1)c1c2n(n(-c3cc(F)ccc3F)c1=O)CCCC2  inhibition (enzyme activity, inhibitor; 0.5 µM): 19%
COc1c(OCCCN2CCOCC2)ccc2c1N=C(NC(=O)c1cnc(N)nc1)N1CCN=C21  remaining activity (kinase activity, inhibitor; 1 µM; reference: untreated control): 113%
COCC12C(=O)NC3C4(C(OC)CC1O)C1CC5(O)C(OC)C(O)C(OC(C)=O)(C1C5OC(=O)c1ccccc1)C3(O)C(OC)C24 (stereo not shown)  remaining activity (kinase activity, inhibitor, ProQinase kinase profiling; 25 µM; reference: control): 105% and 114%

For quick reference, copied from above:
CCn1cc(C(=O)O)c(=O)c2c(N)c(F)c(NC3CCCCC3)cc21  inhibition (kinase activity; 0.1 µM, together with: ATP at Km): 3.1%
COc1ccc(NC(=O)Nc2ccc3c(c2)C(=O)N(C(C)CO)CC(C)C(CN(C)Cc2ccc4c(c2)OCO4)O3)cc1 (stereo not shown)  remaining activity (kinase activity, KinaseProfiler; 0.03 µM, species human; reference: control): 99%
